Assay results from different studies.
Protocols differ between the studies behind these lines. ± marks the error that the study gave.
AKT3: RAC-gamma serine/threonine-protein kinase (AKT3, Homo sapiens, UniProt Q9Y243)
CD38: ADP-ribosyl cyclase/cyclic ADP-ribose hydrolase 1 (CD38, Homo sapiens, UniProt P28907)
T1: ssDNA; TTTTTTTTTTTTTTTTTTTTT
T2: RNA aptamer; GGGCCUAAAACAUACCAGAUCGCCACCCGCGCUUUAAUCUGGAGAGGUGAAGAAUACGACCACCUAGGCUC

Structure (SMILES) | target | test | test system | setting | how to read | measurement | value
OC[C@@H]1[C@@H](O)[C@H](O)[C@@H](O)CN1CCCCCOCC1CCCO1 (stereo partly shown) | Beta-glucosidase (GBA2, Homo sapiens, UniProt Q9HCG7) |  |  |  | baseline: GBA1 over target | selectivity ratio | 689
CS(=O)(=O)CCC1NC(=O)C(Cc2ccco2)NC(=O)C(CC2CC2)NC(=O)C=CC(=O)NC(C(N)=O)CCNC1=O (stereo not shown) | AKT3 | DNA-templated library selection |  | one selection round |  | enrichment factor | 1.3
CNc1ccccc1C(=O)O[C@H]1C[C@H](n2cnc3c(N)ncnc32)O[C@@H]1COP(=O)(O)OP(=O)(O)O | Unconventional myosin-Va (Gallus gallus, UniProt Q02440, D297C/G292C/I296C/S293C/V295G) | stopped-flow FRET |  | 25 °C, together with: MgCl2 10 mM |  | pocket reverse rate constant | 3.99 ± 2.24 s⁻¹
CSCC[C@H](NC(=O)[C@H](CO)NC(=O)[C@H](CC(N)=O)NC(=O)[C@H](CC(C)C)NC(=O)[C@H](Cc1c[nH]cn1)NC(=O)[C@H](CCCCN)NC(=O)CNC(=O)[C@H](CCCCN)NC(=O)[C@H](CC(=O)O)NC(=O)[C@H](Cc1c[nH]cn1)NC(=O)[C@H](CC(C)C)NC(=O)[C@H](CC(C)C)NC(=O)[C@H](CCC(N)=O)NC(=O)[C@H](Cc1c[nH]cn1)NC(=O)[C@H](CCC(=O)O)NC(=O)[C@H](CO)NC(=O)[C@@H](NC(=O)[C@H](C)N)C(C)C)C(=O)N[C@@H](CCC(=O)O)C(=O)N[C@@H](CCCNC(=N)N)C(=O)N[C@H](C(=O)N[C@@H](CCC(=O)O)C(=O)N[C@@H](Cc1c[nH]c2ccccc12)C(=O)N[C@@H](CC(C)C)C(=O)N[C@@H](CCCNC(=N)N)C(=O)N[C@@H](CCCCN)C(=O)N[C@@H](CCCCN)C(=O)N[C@@H](CC(C)C)C(=O)N[C@@H](CCC(N)=O)C(=O)N[C@@H](CC(=O)O)C(=O)N[C@H](C(=O)N[C@@H](Cc1c[nH]cn1)C(=O)N[C@@H](CC(N)=O)C(=O)N[C@@H](Cc1ccccc1)C(=O)N[C@@H](CCCCNC(=O)c1ccc2c(c1)C1(OC2=O)c2ccc(N(C)C)cc2Oc2cc(N(C)C)ccc21)C(N)=O)C(C)C)C(C)C | PTH1R (Homo sapiens, UniProt Q03431) | binding, NanoBRET | HEK293 |  |  | koff | 0.029 ± 0.009 s⁻¹
CC(=O)NCCN(CC(=O)NCCN(CC(=O)NCCN(CC(=O)NCCC(N)=O)C(=O)[C@@H](N)Cc1ccccc1)C(=O)[C@@H](N)CCCNC(=N)N)C(=O)[C@@H](N)Cc1ccccc1 | HIV-1 TAR RNA |  |  | extrapolated to 1 M KCl |  | non-electrostatic ΔG° | -7.266 ± 0.0239 kcal/mol
CC(=O)N[C@@H](CC(=O)O)C(=O)N[C@H]1CSSC[C@@H](C(=O)N[C@H](C(=O)N[C@@H](Cc2ccccc2)C(=O)N[C@@H](Cc2c[nH]cn2)C(N)=O)[C@@H](C)O)NC(=O)[C@H](Cc2c[nH]c3ccccc23)NC(=O)[C@H](C(C)C)NC(=O)[C@H](CC(C)C)NC(=O)[C@H](CCC(=O)O)NC(=O)CNC(=O)[C@H](CC(C)C)NC(=O)[C@H](Cc2c[nH]cn2)NC(=O)[C@H](Cc2ccc(O)cc2)NC(=O)[C@H](C)NC1=O | Immunoglobulin heavy constant gamma 1 (IGHG1, Homo sapiens, UniProt P01857) | binding, ITC |  | 25 °C, together with: Herceptin |  | ΔG | -11 kcal/mol
FC(F)(F)c1csc(Nc2ccc(Cl)c(Cl)c2)n1 | Kinesin-like protein KIF15 (Homo sapiens, UniProt Q9NS87) | microtubule-activated ATPase activity |  | 30 µM, together with: ATP, microtubules 3 µM |  | kcat | 4.1 ± 0.4 s⁻¹
CC(=O)NCCN(CC(=O)NCCN(CC(=O)NCCN(CC(=O)NCCC(N)=O)C(=O)C[C@@H](N)CCCCN)C(=O)C[C@@H](N)Cc1ccccc1)C(=O)C[C@@H](N)Cc1ccccc1 | HIV-1 TAR RNA |  |  | 25 °C |  | binding free energy ΔG° | -9.03 ± 0.335 kcal/mol
CN1C(=O)/C(=C/c2cc(Cl)cc(Br)c2O)SC1=S | CD38 | cyclase activity, fluorometric |  | 50 µM, together with: NGD+ substrate | baseline: untreated | remaining activity | 19.3 ± 11.2%
Cc1cc(C=C2Sc3ccccc3N2CCCN2CCCC2)c2ccccc2[n+]1C | T1, ssDNA | fluorescence light-up |  | pH 7.4, KCl 60 mM |  | binding | binds weakly
CCc1nc2sc(C(=O)c3ccc(C(C)C)cc3)c(N)c2c2c1CCCC2 | CD38 | cyclase activity, fluorometric |  | 50 µM, together with: NGD+ substrate | baseline: untreated | remaining activity | 28.1 ± 9.2%
O=C(O)C1OC(Oc2cccc(-c3nc(N4CCOCC4)c4oc5ncccc5c4n3)c2)C(O)C(O)C1O (stereo not shown) | UGT1A7 (Homo sapiens, UniProt Q9HAW7) | glucuronidation, substrate, recombinant enzyme |  |  |  | substrate inhibition constant | 271 ± 123 µM
CC(=O)N[C@@H](CC(=O)O)C(=O)N[C@@H](CCC(=O)O)C(=O)N[C@H](C(=O)N[C@@H](CC(=O)O)C(=O)Nc1ccc2c(C)cc(=O)oc2c1)C(C)C | Caspase-6 (CASP6, Homo sapiens, UniProt P55212) | substrate cleavage, substrate, fluorogenic AMC release |  | enzyme 0.25 activity units/µL |  | Vmax | 456 ± 64.2 RFU/min
NC(=O)C1CCCCNC(=O)C(CCCNC(=O)c2cnccn2)NC(=O)C(Cc2ccco2)NC(=O)C(CC2CC2)NC(=O)C=CC(=O)N1 (stereo not shown) | AKT3 | DNA-templated library selection |  | one selection round |  | enrichment factor | 1.5
CC(=O)NCCN(CC(=O)NCCN(CC(=O)NCCN(CC(=O)NCCC(N)=O)C(=O)C[C@@H](N)Cc1ccccc1)C(=O)C[C@@H](N)CCCNC(=N)N)C(=O)C[C@@H](N)Cc1ccccc1 | HIV-1 TAR RNA |  |  | extrapolated to 1 M KCl |  | non-electrostatic ΔG° | -8.174 ± 0.0717 kcal/mol
CNC(=O)C[C@H](Cc1ccc(C#N)cc1)NC(=O)c1cc(-c2ccc(CN[C@H](C)c3ccc(C)cc3)o2)ccc1Cl | ATPase family AAA domain-containing protein 2, bromodomain (ATAD2, Homo sapiens, UniProt Q6PL18) | binding, TR-FRET competition |  | concentration not given, together with: H4K12ac peptide |  | activity | inactive
CC[C@H](C)[C@H](NC(=O)[C@@H](NC(=O)[C@H](C)NC(=O)[C@H](CCC(=O)O)NC(=O)[C@H](CO)NC(=S)Nc1ccc2c(c1)C(=O)OC21c2ccc(O)cc2Oc2cc(O)ccc21)C(C)C)C(=O)N[C@H](C(=O)N[C@H](C(=O)N1CCC[C@H]1C(=O)N[C@@H](Cc1ccccc1)C(=O)N[C@@H](CC(C)C)C(=O)N[C@H](C(=O)N[C@@H](CC(N)=O)C(=O)N[C@@H](CC(C)C)C(=O)O)[C@@H](C)O)[C@@H](C)CC)C(C)C | Rgg transcriptional regulator (Streptococcus pneumoniae, UniProt A0A0E7KI02) | binding, fluorescence polarization |  |  | baseline: wild-type peptide | fold decrease in affinity | ~8 fold
CC(=O)NCCN(CCC(=O)NCCN(CCC(=O)NCCN(CCC(=O)NCCC(N)=O)C(=O)[C@@H](N)Cc1ccccc1)C(=O)[C@@H](N)CCCNC(=N)N)C(=O)[C@@H](N)Cc1ccccc1 | HIV-1 TAR RNA |  |  | extrapolated to 1 M KCl |  | non-electrostatic ΔG° | -7.409 ± 0.0717 kcal/mol
O=C1CC[C@H](N2Cc3cc(-c4cnn5ccc(NCc6ccccc6)nc45)ccc3C2=O)C(=O)N1 | Cereblon/Casein kinase I alpha (CSNK1A1/CRBN, Homo sapiens, UniProt P48729+Q96SW2) | protein level, degrader, luciferase | MOLT-4 |  |  | Dmax | 30%
CCN(CCCC[C@H](NC(=O)[C@H](Cc1ccc(OC)c(OC)c1)NC(=O)[C@H](C)NC(=O)[C@H](CC1CCCCC1)NC(=O)c1ccc(Br)c(N)c1)C(=O)N[C@@H](CO)C(=O)OC)C(C)C | Chromobox protein homolog 5 (Homo sapiens, UniProt P45973) | binding, item: CBX5 | HEK-293T cell lysate | concentration not given |  | competition of probe pulldown | inhibited
CC(C)C[C@H](NC(=O)[C@@H](NC(=O)[C@@H](NC(=O)CN)[C@@H](C)O)C(C)C)C(=O)N1CCC[C@H]1C(=O)N1CCC[C@H]1C(=O)N1CCC[C@H]1C(=O)N1CCC[C@H]1C(=O)N[C@@H](Cc1ccc(O)cc1)C(=O)N[C@@H](CCCNC(=N)N)C(=O)N[C@@H](Cc1c[nH]cn1)C(=O)N[C@@H](CCCNC(=N)N)C(=O)N[C@@H](CC(N)=O)C(=O)O | WW domain-containing oxidoreductase, WW1 domain (WWOX, Homo sapiens, UniProt Q9NZC7) | binding, isothermal titration calorimetry |  |  | baseline: isolated WW1 minus tandem WW1-WW2 | ΔH difference | -11 kcal/mol
CC(=O)NCCN(CCC(=O)NCCN(CCC(=O)NCCN(CCC(=O)NCCC(N)=O)C(=O)[C@@H](N)CCCCN)C(=O)[C@@H](N)Cc1ccccc1)C(=O)[C@@H](N)Cc1ccccc1 | HIV-1 TAR RNA |  |  | 25 °C |  | binding free energy ΔG° | -8.75 ± 0.287 kcal/mol
O=C(c1ccco1)N1CCN(Cc2ccc3c(c2)OCO3)CC1 | MAPK14 (Homo sapiens, UniProt Q16539) | enzyme activity |  |  |  | ligand efficiency | 0.14
C[C@H]1c2cccc(O)c2C(=O)C2=C(O)[C@]3(O)C(=O)C(C(N)=O)=C(O)[C@@H](N(C)C)[C@@H]3[C@@H](O)[C@@H]21 | T2, RNA aptamer | fluorescence titration |  | pH 7.5, 25 °C, MgCl2 10 mM |  | Kd | 118 nM
COc1cc(C2CC(=O)Nc3nc(N)[nH]c(=O)c32)ccc1O (stereo not shown) | uncharacterized protein (Leishmania donovani, UniProt A0A3Q8IA09) | competitive ITC |  | concentration not given, together with: glutamate 60 µM |  | binding stoichiometry | 3.59 ± 0.178
Cc1cc(O)cc2c1C(=O)c1c(cc3oc(=O)cc(-c4ccccc4)c3c1O)C2=O | mushroom tyrosinase | enzyme activity |  | 25 µg/mL, together with: L-DOPA |  | inhibition | 28.92 ± 0.11%
CC(=O)N[C@@H](Cc1ccc(O)cc1)C(=O)N[C@@H](CCCNC(=N)NC(=O)NCCCCN)C(=O)N[C@@H](CC(C)C)C(=O)N[C@@H](CCCNC(=N)N)C(=O)N[C@@H](Cc1ccc(O)cc1)C(N)=O | NPY4R (Homo sapiens, UniProt P50391) | β-arrestin-2 recruitment, agonist | HEK293T | concentration not given, unit not given | baseline: 1 µM human pancreatic polypeptide | intrinsic activity | 0.6
CC(C)CCC[C@@H](C)[C@H]1CC[C@H]2[C@@H]3CC=C4C[C@@H](OS(=O)(=O)O)CC[C@]4(C)[C@H]3CC[C@]12C | Prothrombin (F2, Homo sapiens, UniProt P00734) | intrinsic fluorescence |  | 800 µM, decrease |  | maximal fluorescence change | 29.6 ± 1.8%
